Results pooled from the literature.
Numbered parts are unrelated; each lists some results of a single study.

Study 1 — method: RNA Bind-n-Seq; form: RNA; matrix: in vitro; tested at: 200 nM; setting: whole 134-nt RNA, ends assumed; together with: 150 mM LiCl; relative to: input library; reading: higher = stronger binding; measurement: log2 enrichment; each molecule: 7-deaza-guanosine replaces G
Target: Ras GTPase-activating protein-binding protein 1, full length (G3BP1, Homo sapiens, UniProt Q13283)
Sequence of UniProt Q13283 (whole entry, looked up): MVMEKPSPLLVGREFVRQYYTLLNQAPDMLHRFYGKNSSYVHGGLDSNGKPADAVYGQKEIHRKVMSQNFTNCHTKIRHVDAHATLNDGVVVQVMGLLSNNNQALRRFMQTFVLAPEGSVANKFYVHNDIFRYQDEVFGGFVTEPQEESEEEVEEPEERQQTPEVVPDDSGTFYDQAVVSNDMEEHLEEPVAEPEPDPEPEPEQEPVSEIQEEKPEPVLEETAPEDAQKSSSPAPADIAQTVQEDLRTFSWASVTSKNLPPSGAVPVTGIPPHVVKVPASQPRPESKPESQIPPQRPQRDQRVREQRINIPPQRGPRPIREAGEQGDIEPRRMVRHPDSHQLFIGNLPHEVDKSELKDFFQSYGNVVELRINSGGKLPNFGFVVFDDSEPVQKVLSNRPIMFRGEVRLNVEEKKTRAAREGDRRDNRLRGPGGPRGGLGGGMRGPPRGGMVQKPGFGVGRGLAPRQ
Shared flanks, not repeated: GGGAGUUCUACAGUCCGACGAUC … UGGAAUUCUCGGGUGUCAAGG
CAAGUCCUGUGCUACACAUCGUAUGUACCGAAUCGGGGUGGGGUUUGGGGAGGGGAAAGUAUUAUGUUACGCCGUUCGGAUCUGCACUUC: -0.562
UCCUGUGCUACACAUCGUAUGUACCGAAUCGGUUUUUUGGGUUUUUUGGGGUUUUUUGGGAAAGUAUUAUGUUACGCCGUUCGGAUCUGC: 0.565
UGUGCUACACAUCGUAUGUACCGAAUCGGGGAAAAAAAGGGGUUUUUGGGGUUUUUUUGGGGAAAGUAUUAUGUUACGCCGUUCGGAUCU: -0.463
UGGGAGGUGGAUUUUGUUUAUUUUUUUACCUCAUUUCCAGGGGUGGGAAUUUUUUUUUAAUAUGUGUCAUGAAUAAAGUUGUUUUUGAAA: -0.46
AAGUCCUGUGCUACACAUCGUAUGUACCGAAUCGGAAAAAGGAAAAAAAGGAAAGGAAAGUAUUAUGUUACGCCGUUCGGAUCUGCACUU: -0.989
CACAGACAACACGCACCCACACAGACACAGAGGGAAGGGGUUGGGAUGGUGACAGGGUGCACAGCAGGGCGGGGUAGGACCCCAGCCCCU: 0.0237
CUGUGCUACACAUCGUAUGUACCGAAUCGGGGAAAAAGGGGAAAAAGGGGAAAAAAAGGGGAAAGUAUUAUGUUACGCCGUUCGGAUCUG: 0.717
CUCAAGUCCUGUGCUACACAUCGUAUGUACCGAAUCGGUGGAAAAAAAGGAGGAAAGUAUUAUGUUACGCCGUUCGGAUCUGCACUUCCA: 0.09
CAAGUCCUGUGCUACACAUCGUAUGUACCGAAUCGGGGCCCGGGCCCGGGCCCGGGAAAGUAUUAUGUUACGCCGUUCGGAUCUGCACUU: -0.525
CUGUGCUACACAUCGUAUGUACCGAAUCGGGGCCCCCCCGGCCCCCCCGGGGCCCCCCCGGAAAGUAUUAUGUUACGCCGUUCGGAUCUG: 1.32
UCCUGUGCUACACAUCGUAUGUACCGAAUCGGGAAAGGGAAAAAAAGGGUUUUUUUGGGAAAGUAUUAUGUUACGCCGUUCGGAUCUGCA: -0.31

Study 2 — method: protein binding microarray; form: double-stranded DNA, one strand shown; matrix: in vitro; tested at: not given; relative to: not given; reading: higher = stronger binding; measurement: E-score
Target: Histone acetyltransferase KAT6A, both winged helices, GST fusion (KAT6A, Homo sapiens, UniProt Q92794, residues 1-181)
Setting: 8-mer, flanks averaged, mean of 2 arrays, mostly near background
Target sequence (chain): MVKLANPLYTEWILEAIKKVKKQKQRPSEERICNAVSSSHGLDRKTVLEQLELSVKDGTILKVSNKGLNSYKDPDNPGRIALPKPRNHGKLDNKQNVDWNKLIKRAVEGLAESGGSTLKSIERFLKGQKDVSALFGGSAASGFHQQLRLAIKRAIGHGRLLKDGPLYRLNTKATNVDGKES
ATCTACAT: -0.157
AGGCGTTA: 0.016
GTAGCCAC: -0.125
ACGACCTC: -0.05
TCCAGCCA: -0.195
AAGGTAGC: 0.045
GGACCACA: -0.124
ATCACTAA: 0.0553
AATATGTC: -0.113
ATGTGACG: -0.128
TCAGACAA: -0.0871
ACCAGCAC: -0.28
CTTCGCCA: 0.0744
GGCTGATA: 0.0378
ACGACTTA: -0.112
AATGCTGG: -0.165
GCGCAAGA: 0.253
GTGTTTGA: -0.0789
AGCATGCT: -0.158
CAGTGGCG: 0.0859
ATGTCCGC: 0.293
AGCACATA: -0.132

Study 3 — method: protein-binding microarray; form: double-stranded DNA, one strand shown; matrix: in vitro; tested at: not given; reading: higher = stronger binding; measurement: E-score
Target: Cyclic AMP-dependent transcription factor ATF-1 (ATF1, Homo sapiens, UniProt P18846, residues 1-271, full length assumed)
Setting: k-mer, scored over probes, only values ≥0.25
Residues (chain): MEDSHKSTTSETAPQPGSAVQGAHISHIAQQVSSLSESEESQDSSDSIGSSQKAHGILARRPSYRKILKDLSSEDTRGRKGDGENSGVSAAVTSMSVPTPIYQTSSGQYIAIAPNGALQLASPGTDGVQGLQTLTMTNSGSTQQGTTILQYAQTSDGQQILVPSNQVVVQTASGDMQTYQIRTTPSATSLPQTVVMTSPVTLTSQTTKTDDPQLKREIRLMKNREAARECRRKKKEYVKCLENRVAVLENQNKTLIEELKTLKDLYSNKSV
AATACGT: 0.374
CGTCAAG: 0.265
ACGTGGC: 0.278
ACGAAAC: 0.329
AACGTAC: 0.278
GTCGTCA: 0.391
TATGACA: 0.274
TGTCACA: 0.277
ACGTAGG: 0.413
CGCATCA: 0.316
CGGTGAC: 0.297
CAACACG: 0.278
ACGTGGA: 0.318
CGTCGTA: 0.317
GGATGAC: 0.337

Study 4 — method: aptamer microarray, sandwich; form: DNA with 2'F-ANA; matrix: in vitro; tested at: 200 nM; together with: Cy3 exosite-II aptamer, 400 nM; reading: higher = stronger binding; measurement: mean fluorescence intensity; oligonucleotide: GGTTGGTGTGGTTGG
Target: Prothrombin, mature alpha-thrombin (F2, Homo sapiens, UniProt P00734)
Setting: whole 15-mer aptamer, many near background
2'F-ANA at 1 5 6 11 13 15: 68.7 a.u.
2'F-ANA at 2 7 8 12 13 14: 226 a.u.
2'F-ANA at 1 3 4 5 9 11 12 14 15: 49 a.u.
2'F-ANA at 1 2 4 9 10 12 14: 90.4 a.u.
2'F-ANA at 1 5 7 8 9 11 13: 80.9 a.u.
2'F-ANA at 2 4 6 7 9 10 12 13 14: 65.4 a.u.
2'F-ANA at 1 3 6 10 11 12 15: 99.2 a.u.
2'F-ANA at 2 3 5 7 9 14: 73.8 a.u.
2'F-ANA at 5 8 10 12 15: 46.5 a.u.
2'F-ANA at 2 3 6 7 9 11 13 14 15: 250 a.u.
2'F-ANA at 1 5 6 11: 51.2 a.u.
2'F-ANA at 1 2 3 4 5 6 7 8 9 10 12: 52.3 a.u.
2'F-ANA at 1 4 5 9 11 12 14 15: 44.4 a.u.
2'F-ANA at 2 4 6 7 8 9 10 12 13 14 15: 61.5 a.u.
2'F-ANA at 1 2 5 6 8 11 13 15: 52.3 a.u.
2'F-ANA at 1 4 7 11 13 15: 76.6 a.u.
2'F-ANA at 1 2 7 12: 357 a.u.
2'F-ANA at 2 5 6 8 10 11 12 13 14 15: 89.6 a.u.
2'F-ANA at 1 2 4 5 8 9 10 12 13 15: 52.9 a.u.
2'F-ANA at 1 3 4 6 9 10 11 12 13 15: 78.6 a.u.
2'F-ANA at 2 3 4 6 7 8 9 10 12 14: 178 a.u.
2'F-ANA at 2 3 4 7 8 9 10 11 12 13 15: 224 a.u.
2'F-ANA at 1 2 5 6 7 9 12: 142 a.u.
2'F-ANA at 2 3 5 6 7 8 9 10 12 13 14: 50.6 a.u.
2'F-ANA at 3 5 6 8 11 12 13: 173 a.u.

Study 5 — method: RNA Bind-n-Seq; form: RNA; matrix: in vitro; tested at: not given; relative to: input RNA pool; reading: higher = stronger binding; measurement: bound/input enrichment
Target: RING finger protein unkempt homolog, zinc fingers 1-6, GST-SBP tag (UNK, Homo sapiens, UniProt Q9C0B0, residues 30-357)
Sequence of UniProt Q9C0B0 (30-357, looked up): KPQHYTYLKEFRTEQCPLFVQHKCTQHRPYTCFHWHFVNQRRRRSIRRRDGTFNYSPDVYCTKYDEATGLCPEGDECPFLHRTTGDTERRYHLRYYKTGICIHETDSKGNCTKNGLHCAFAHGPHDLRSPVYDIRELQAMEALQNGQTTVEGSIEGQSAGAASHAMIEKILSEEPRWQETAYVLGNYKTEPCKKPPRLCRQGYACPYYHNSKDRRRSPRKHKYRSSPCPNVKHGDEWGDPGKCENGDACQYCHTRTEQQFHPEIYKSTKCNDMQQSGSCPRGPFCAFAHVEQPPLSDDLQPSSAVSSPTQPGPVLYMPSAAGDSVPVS
Setting: RNA with constant flanks, human-mouse chimeric sites, ends assumed
Shared flanks, not repeated: GGGAGUUCUACAGUCCGACGAUC … CAACAGAGGAUUGAGCAUCA
GCUCCUCCCCGCUCUGCAGCCUGGGGACACUGGGCUGCAUUUUUUUUCCAGCUUUCUUUUAAAACUCUAUAUUUUUUUGUAUCCCGUGACAUUUCAUUUUUUUUAAAUAGUGUAUUUUUU: 21 ratio
AUGGAACAUUUCGAUGCGUCACUCAGUACCUAUUUCAAGGCCUUCCUGGGCCCCCGAGAUACAAGAGUAAAAGGAUGGUUCCUCCUGGACAAUUAUAUCCCUACGUUUGUCUGUUCUGUU: 0.103 ratio
GUUGCCAGCUUCCGGUUCCGUUGGGCUCGGUUCUCUCCUGAGCUACGGUCCCUGGCACUCUCAAUCCGCCAUCCAACAAACAUGGAUCAGGUAAUGCAGUUUGUGGAGCCCAGCCGGCAG: 0.128 ratio
CUGUGUGGCUUACUAAAAUGGCUUGUAAGAACUGUCCUCCAAGCUGUAACCCAUGCUGUUAUUAUAGUUGCUGCAAAAUGUUCUUCCUGAUAUUGAUUUUAUUUGUUAACUGAAGGUCUC: 0.414 ratio
UUACCCGAGAACGAGGAUGAGCUGGAGAGCACCAACAGACGCUAUACCAAGAGAGACUGCAGCACUUUCCUCAGAACUAGUGAGACGGGCAUCGUGGACCAGGUCAUGGUCACUCUCAAC: 0.184 ratio
AAAGUGGACUAUGGUGAGUACAUGGAUAAAAACAAUGUGAGGCGGCAAGCAACAACAAUCAUAGCUGAUAAUAUUAUAUUUCUGAGUGACCAGACAAAAGAAAAGGCAUAGAACGGAUGA: 5.94 ratio
AAUUUCCUGUCAUACUUUGUAGCAAGACACAUCAGACGCCUUACUACCCUGGCCACAUUCUAGGUUUGUGUUAUUUCUCAGCUAUGGAUAUGAUCAAAUGAGAACACUGCUUAACUAAUG: 0.207 ratio
UAAGUUAAGCUUUUAAUCUUUGUAAAUUGUAUAGCUUUUUAUAUUGCCAUGUUUAUUUUGUUUGGGUAAUUUGGUUCAUUAAGUACAUAGCUAAGGUAAUGAACAUCUUUUUCAGUAAUU: 1.05 ratio
AGAUUCCCCCUCCUGAGACCUCCUCCGAAGUUGGAGUCUCUUACAGAUGCCUCAUCCCCUGUUAGUAUUUUAGUUUGGACCACACAACCUUGGACAAUUCCCGCCAACCAGGCAAUUUGC: 3.14 ratio

A few entries again (study 4):
2'F-ANA at 1 5 6 11: 51.2 a.u.
2'F-ANA at 2 3 4 7 8 9 10 11 12 13 15: 224 a.u.
2'F-ANA at 1 3 6 10 11 12 15: 99.2 a.u.
2'F-ANA at 1 2 4 5 8 9 10 12 13 15: 52.9 a.u.
2'F-ANA at 1 2 4 9 10 12 14: 90.4 a.u.
2'F-ANA at 2 4 6 7 8 9 10 12 13 14 15: 61.5 a.u.
2'F-ANA at 2 3 4 6 7 8 9 10 12 14: 178 a.u.
2'F-ANA at 1 2 5 6 7 9 12: 142 a.u.
2'F-ANA at 1 2 5 6 8 11 13 15: 52.3 a.u.
2'F-ANA at 2 3 5 6 7 8 9 10 12 13 14: 50.6 a.u.
2'F-ANA at 1 4 7 11 13 15: 76.6 a.u.
2'F-ANA at 1 5 7 8 9 11 13: 80.9 a.u.
2'F-ANA at 2 7 8 12 13 14: 226 a.u.
2'F-ANA at 1 5 6 11 13 15: 68.7 a.u.
